Measurements of several laboratories.
Protocols differ between the studies behind these lines. ± gives the spread as reported.

COc1ccc(-n2nc(C(C)=O)s/c2=N\N=C(/C)c2ccc(NC(=O)c3ccccc3)cc2)cc1  toxicity (MCF7; 10 µM): 97.5%
COc1cccc2c1C(=O)c1c(O)c3c(c(O)c1C2=O)C[C@@](O)(C(=O)CO)C[C@@H]3O[C@H]1C[C@H](N)[C@H](O)[C@H](C)O1  point of departure (HepG2; CellTiter-Glo, refers to: cellular ATP; 24 h, representative mode): 0.0174 µM
CCCCc1nc(Cl)c(CO)n1Cc1ccc(-c2ccccc2-c2nn[nH]n2)cc1  log2 fold change (human PBMC; RNA-seq, refers to: SH3PXD2B mRNA; 10 µg/mL, 24 h; reference: untreated control): 1.52
COc1ccc([C@H]2N(c3ccc(Cl)c(Cl)c3)C(=O)[C@@H]3CCCN32)c(OC)c1OC (racemic)  mutant huntingtin aggregate size (PC-12 cells expressing mutant huntingtin-eGFP; fluorescence microscopy; 50 µM): no effect
Cc1cccc(-c2[nH]c(CNc3ccccc3F)nc2-c2ccc3ncnn3c2)n1  viability (MM1.S pomalidomide-resistant; XTT; 3 µM; reference: untreated): 21%
COc1ccc(-n2nc(C(N)=O)c3c2C(=O)N(c2ccc(N4CCCCC4=O)cc2)CC3)cc1  activity score (human iPSC-derived cardiomyocytes; MyBP-C/MYH ratio, plate-normalised SD score; concentration not given, primary screen; direction not given): -3.7
CN1CCN(c2ccc3[nH]c(-c4ccc5[nH]c(-c6ccc(C(F)(F)F)cc6)nc5c4)nc3c2)CC1  growth percent (M14; SRB; 10 µM, 48 h): 43.8%
O=C(Nc1nnc2n3c(Cc4ccccc4)n[nH]c3nc(-c3ccc(Cl)cc3)c1-2)c1ccccc1  mean growth percent (NCI60 cell panel; SRB; 10 µM): 101%
CC(C)C[C@H](NC(=O)C[C@H](O)[C@H](CC(C)C)NC(=O)[C@H](Cc1c[nH]cn1)NC(=O)CNC(=O)[C@@H](NC(=O)[C@H](C)NC(=O)[C@H](Cc1c[nH]c2ccccc12)NC(=O)[C@H](CCC(N)=O)NC(=O)[C@@H](Cc1ccccc1)NC(=O)COCCOCCNC(=O)CCC(C(=O)O)N1CCN(CC(=O)O)CCN(CC(=O)O)CC1)C(C)C)C(N)=O (some centres unmarked) [lutetium-177 labelled]  tissue uptake (female BALB/c nu/nu mice, muscle; intravenous, 50 pmol, 24 h): 0.009 ± 0.001 %ID/g
C[C@H]1[C@@H](O)O[C@@H]2O[C@@]3(C)CC[C@H]4[C@H](C)CC[C@@H]1[C@@]24OO3  early apoptotic cells (THP-1; annexin V/PI flow cytometry, refers to: annexin V+/PI-; 0.4 µM, 24 h): 2.1%
CNCCCOc1cc(F)c(-c2c(Cl)nc3ncnn3c2N[C@@H](C)C(F)(F)F)c(F)c1  proteins increased over twofold (QBI293; quantitative proteomics; 10 µM, 4 h, unit not given; reference: vehicle): 16
Cn1cncc1C1=CN(c2ncnc3[nH]cnc23)CCS1  TGI (T29; colon cancer): 89.1 µM
Cn1cc(-c2ccc(-c3cncc(Cl)c3N3CCC4(CCNC4=O)CC3)cc2)cn1  log2 fold change (COLO 205; gene expression, microarray, refers to: SAT1 (SSAT) mRNA; concentration not given, 6 h; reference: untreated cells): 2.74
CCn1cc(-c2cc(Cn3ccoc3=N)cc3c2CCN([C@@H](C)c2cc(OC)ccn2)C3=O)c(C(F)(F)F)n1  EC50 (SNU1076; cell growth; 120 h): 0.0311 µM
O=C(Nc1cc(OCCN2CCCC2)c2ccccc2n1)c1cc(OCc2ccc(F)cc2)cc(C(=O)Nc2cc(OCCN3CCCC3)c3ccccc3n2)n1  selectivity ratio (U2OS; cell viability, CellTiter-Glo; 72 h; reference: IC50 U2OS over WI-38): 2
COc1cc(NS(=O)(=O)c2ccc(N)cc2)ncn1  activity score (human iPSC-derived cardiomyocytes; MyBP-C/MYH ratio, plate-normalised SD score; concentration not given, primary screen; direction not given): 3.2
O=C(CCCSc1nc2c(c(=O)[nH]1)CCCC2)Nc1ccc(OC(F)F)cc1  inhibition (cells, COS-1, expressing proMMP-9; cell migration, 2D collagen dot migration; 50 µM, 18 h): 74 ± 2%
CCCCOC(=O)Cn1c2ccc(OC)cc2c2nc3ccccc3nc21  efficacy (C127 LDR GFP reporter cells; silenced GFP reporter induction, activator, high-content imaging; retest, two-run mean): 36%
CCn1cc(-c2cc(Cn3ccnc3)cc3c2CCN([C@H](c2cc(OC)ccn2)C2CC2)C3=O)c(C(F)(F)F)n1  EC50 (NCI-H929; cell growth, inhibitor; 120 h): > 30 µM
Cc1cc(Nc2ncc(Cl)c(Nc3ccccc3S(=O)(=O)C(C)C)n2)c(OC(C)C)cc1C1CCNCC1  log2 fold change (CLB-GE; phosphoproteomics LC-MS/MS, refers to: TJAP1 phosphorylation; 200 nM, 60 min; reference: untreated): -2.02
Cc1cnc2ccc3c(c2n1)N1CCC(O)N=C1N3C (centres unmarked)  relative colony forming efficiency (BALB/c 3T3; 50 µM; reference: solvent control): 0%
Cc1ccc(/C=[N+](\[O-])c2ccc(N(C)C)cc2)c2nsnc12  efficacy (C127 LDR GFP reporter cells; silenced GFP reporter induction, activator, high-content imaging; retest, two-run mean): 41%
Cc1cc(C(C)(C)C)c(O)c(C(C)(C)C)c1  activity score (human iPSC-derived cardiomyocytes; MyBP-C/MYH ratio, plate-normalised SD score; concentration not given, primary screen; direction not given): 6
O=c1[nH]c(=O)c2cc(S(=O)(=O)Nc3ccc(N4CCCCCC4)cc3)ccc2[nH]1  fractional shortening (adult rat ventricular myocytes; 10 µM; reference: basal): 173%
Nc1nccs1  activity score (human iPSC-derived cardiomyocytes; MyBP-C/MYH ratio, plate-normalised SD score; concentration not given, primary screen; direction not given): 4.5
CCCCCCCCCCCCCCCCCCO  ISG expression (HepAD38; refers to: ISG15, OAS1, APOBEC3G; concentration not given, together with: IFN-α 200 IU): no effect
C=CC1=C(C)c2cc3[n-]c(cc4nc(cc5[n-]c(cc1n2)c(C)c5C=C)C(C)=C4CCC(=O)O)c(CCC(=O)O)c3C.[Zn+2]  fold change (SH-SY5Y; RNA-seq, refers to: FBLIM1 mRNA; 5 µM, 5 h; reference: untreated cells): 1.84
O=C(/C=C/C=C/C=C/C1CCCCC1)NC1=C[C@@](O)(/C=C/C=C/C=C/C(=O)NC2=C(O)CCC2=O)[C@@H]2O[C@@H]2C1=O  GI50 (U2OS; cell growth, CellTiter-Glo; 78 h): 8.97 µM
CCOC(=O)C1=C(COCCN)NC(C)=C(C(=O)OC)C1c1ccccc1Cl (centres unmarked)  activity score (human iPSC-derived cardiomyocytes; MyBP-C/MYH ratio, plate-normalised SD score; concentration not given, primary screen; direction not given): 3.8
CCCCc1oc2ccc(NS(C)(=O)=O)cc2c1C(=O)c1ccc(OCCCN(CCCC)CCCC)cc1  fold change (human embryonic stem cell aggregates; mRNA level, microarray, refers to: GPC4; 0.5 µM, 120 h; reference: untreated, down-regulated): 2.1 fold
CC(C)COCC(CN(Cc1ccccc1)c1ccccc1)N1CCCC1 (centres unmarked)  activity score (human iPSC-derived cardiomyocytes; MyBP-C/MYH ratio, plate-normalised SD score; concentration not given, primary screen; direction not given): 4.8
O[C@H]1[C@H]2c3cc4c(cc3CN3CCC(=C[C@@H]1O)[C@H]23)OCO4  efficacy (C127 LDR GFP reporter cells; silenced GFP reporter induction, activator, high-content imaging; retest, two-run mean): 66%
COc1cnc2cccc(N3CCc4c(cc(Cn5ccnc5C)cc4-c4cn(C)nc4C(F)(F)F)C3=O)c2c1  EC50 (SK-BR-3; cell growth, inhibitor; 120 h): 2.35 µM
CC(C)NCC(O)c1ccc(O)c(O)c1 (centres unmarked)  sarcomere length (mouse ventricular cardiomyocytes; dose not given, 0.095 s): 1.73 µm
COc1cc(/C=C/C(=O)N2CCC=CC2=O)cc(OC)c1OC  activity score (human iPSC-derived cardiomyocytes; MyBP-C/MYH ratio, plate-normalised SD score; concentration not given, primary screen; direction not given): 3.1
CCOc1ccc(NC(=O)c2nc(S(=O)(=O)Cc3ccccc3F)ncc2Cl)cc1  maximum efficacy (C127 LDR GFP reporter cells; silenced GFP reporter induction, activator, high-content imaging; independent samples, two-run mean): 14%
CC(=O)N(CC(O)CO)c1c(I)c(C(=O)NCCO)c(I)c(C(=O)NCC(O)CO)c1I (centres unmarked)  activity score (human iPSC-derived cardiomyocytes; MyBP-C/MYH ratio, plate-normalised SD score; concentration not given, primary screen; direction not given): -3.1
Cn1cc(Nc2nccc(-c3ccc4c(c3)CN(C3COC3)CC[C@H]4NC(=O)c3cn(C(C)(C)C)nn3)n2)cn1  pathway activation z-score (mouse splenic B cells; refers to: α-Adrenergic signalling; 30 mg/kg, IgD-activated in vivo; reference: vehicle, direction not given): 2.45

Some of these lines once more:
CC(=O)N(CC(O)CO)c1c(I)c(C(=O)NCCO)c(I)c(C(=O)NCC(O)CO)c1I (centres unmarked)  activity score (human iPSC-derived cardiomyocytes; MyBP-C/MYH ratio, plate-normalised SD score; concentration not given, primary screen; direction not given): -3.1
C=CC1=C(C)c2cc3[n-]c(cc4nc(cc5[n-]c(cc1n2)c(C)c5C=C)C(C)=C4CCC(=O)O)c(CCC(=O)O)c3C.[Zn+2]  fold change (SH-SY5Y; RNA-seq, refers to: FBLIM1 mRNA; 5 µM, 5 h; reference: untreated cells): 1.84
CC(C)COCC(CN(Cc1ccccc1)c1ccccc1)N1CCCC1 (centres unmarked)  activity score (human iPSC-derived cardiomyocytes; MyBP-C/MYH ratio, plate-normalised SD score; concentration not given, primary screen; direction not given): 4.8
